Experimental data collected from several papers.
Protocols differ between the studies behind these lines. ± marks the error that the study gave.

| Compound | test | test system | conditions | scale | endpoint | value |
| --- | --- | --- | --- | --- | --- | --- |
| C[C@H](NC(=O)CCCCCNC(=S)Nc1ccc2c(c1)C(=O)OC21c2ccc(O)cc2Oc2cc(O)ccc21)C(=O)N[C@@H](C)C(=O)N1CCC[C@H]1C(=O)N[C@@H](CCC(=O)O)C(=O)N1CCC[C@H]1C(=O)N[C@@H](CCC(=O)O)C(=O)N[C@H](C(=O)NCC(=O)N[C@@H](CCC(=O)O)C(=O)O)[C@@H](C)O | cytometric bead array | C57BL/6J mouse, hepatic ischaemia-reperfusion, serum | intravenous, 10 mg/kg | reference: vehicle | serum inflammatory cytokine levels | decreased |
| N#Cc1cnc2cc(OCC3CCNCC3)c(F)cc2c1Nc1cc(F)c(OCc2cccc(Cl)n2)cc1Cl |  | C57BL/6J mice, partial hepatectomy | po, 50 mg/kg twice daily, 40 h after hepatectomy, 70% partial hepatectomy | reference: vehicle | liver to body weight ratio | increased |
| CCCCCCCCCCCCCCCC(=O)NCCCC[C@H](N)C(=O)N[C@@H](CC(=O)O)C(=O)N[C@H](C(=O)N[C@@H](Cc1c[nH]cn1)C(=O)N[C@@H](Cc1ccccc1)C(=O)N[C@@H](CCCNC(=N)N)C(=O)N[C@H](C(=O)N[C@@H](Cc1ccccc1)C(=O)N[C@@H](CCCNC(=N)N)C(=O)N[C@@H](CO)C(=O)N[C@@H](Cc1c[nH]cn1)C(=O)N[C@@H](CO)C(=O)N[C@@H](CC(=O)O)C(=O)N[C@@H](Cc1ccc(O)cc1)C(=O)N[C@@H](CCCNC(=N)N)C(=O)N[C@@H](CCCNC(=N)N)C(=O)N[C@H](C(=O)O)[C@@H](C)CC)[C@@H](C)O)[C@@H](C)O |  | C57BL/6J mouse, MCD diet | intraperitoneal, 0.6 nmol/g, 3 weeks, 3 times weekly |  | serum triglycerides | 58.6 ± 7.5 mg/dL |
| C[C@H](NC(=O)COC(=O)[C@H](C)NC(=O)CO)C(=O)O |  | water | pH 4, 65 °C |  | depolymerization rate constant | 0.123 h⁻¹ |
| Cc1cc(O)c(C=O)c2c1C(=O)Oc1c(CO)c(O)c3c(c1O2)C(O)OC3=O (stereo not drawn) |  | streptozotocin-induced diabetic male rats, plasma | 5 mg/kg, 9 weeks |  | fasting plasma glucose | 207 ± 5.85 mg/dL |
| CC[C@H](C)[C@H](NC(=O)[C@H](CC(N)=O)NC(=O)[C@H](CC(N)=O)NC(=O)[C@H](CCCNC(=N)N)NC(=O)[C@H](CC(N)=O)NC(=O)[C@H](CCCNC(=N)N)NC(=O)[C@H](CCCCN)NC(=O)[C@@H](NC(=O)[C@H](CC(N)=O)NC(=O)[C@H](CCSC)NC(=O)[C@H](CC(C)C)NC(=O)[C@H](Cc1c[nH]c2ccccc12)NC(=O)[C@H](CCC(N)=O)NC(=O)[C@@H](NC(=O)[C@H](Cc1ccccc1)NC(=O)[C@H](CC(=O)O)NC(=O)[C@H](CCC(N)=O)NC(=O)[C@H](C)NC(=O)[C@H](CCCNC(=N)N)NC(=O)[C@H](CCCNC(=N)N)NC(=O)[C@H](CO)NC(=O)[C@H](CC(=O)O)NC(=O)[C@H](CC(C)C)NC(=O)[C@H](Cc1ccc(O)cc1)NC(=O)[C@H](CCCCN)NC(=O)[C@H](CO)NC(=O)[C@H](Cc1ccc(O)cc1)NC(=O)[C@H](CC(=O)O)NC(=O)[C@H](CO)NC(=O)[C@@H](NC(=O)[C@H](Cc1ccccc1)NC(=O)[C@@H](NC(=O)CNC(=O)[C@H](CCC(=O)O)NC(=O)[C@@H](CO)NC(=O)[C@@H](N)Cc1c[nH]cn1)[C@@H](C)O)[C@@H](C)O)C(C)C)[C@@H](C)O)C(=O)N[C@@H](C)C(=O)N[C@@H](CSCC(=O)NCCOCCOCCOCCOCCC(=O)O[C@H]1CC[C@@]2(C)C(=CC[C@H]3[C@@H]4CC[C@H]([C@H](C)CCCC(C)C)[C@@]4(C)CC[C@@H]32)C1)C(N)=O |  | diet-induced obese mice, plasma | subcutaneous, 1.9 µmol/kg, 14 days, chronic dosing |  | insulin level | 7.8 ± 1.1 ng/mL |
| CC(C)=CCCC(C)=CCc1cc(-c2coc3cc(OC4OC(C(=O)O)C(O)C(O)C4O)ccc3c2=O)ccc1O (stereo not drawn) | glucuronidation, substrate | monkey liver microsomes |  |  | Vmax | 6810 ± 1370 pmol/min/mg |
| CCCCCCOC(=O)Cc1c(C)n(C(=O)c2ccc(Cl)cc2)c2ccc(OC)cc12 | hot plate test | BALB/c mice | 100 mg/kg, 30 min |  | latency of nociceptive response | 16 ± 0.85 s |
| CC(C)[C@H](NC(=O)CN)C(=O)N[C@@H](CCCCN)C(=O)NCC(=O)N[C@@H](CC(=O)O)C(=O)N[C@@H](CCCCN)C(=O)NCC(=O)N[C@@H](CC(N)=O)C(=O)N1CCC[C@H]1C(=O)NCC(=O)N[C@@H](Cc1c[nH]c2ccccc12)C(=O)N1CCC[C@H]1C(=O)NCC(=O)N[C@@H](C)C(=O)N1CCC[C@H]1C(=O)O |  | UV 2237 fibrosarcoma, mouse | 100 µg/mL coating, peptide-coated plates |  | spreading cells | 0% |
| CC[C@H]1[C@@H](O)[C@@H]2[C@H](CC[C@]3(C)[C@@H]([C@H](C)CCOS(=O)(=O)[O-])CC[C@@H]23)[C@@]2(C)CC[C@@H](O)C[C@@H]12.[Na+] | histology | ob/ob NASH mouse model, liver | oral, 3 mg/kg once daily, 8 weeks, scale 0 to 3 | direction not given | inflammation score | 2.2 ± 0.2 |
| COC(=O)C1OC(Oc2c(-c3ccccc3)oc3cc(O)c(O)c(O)c3c2=O)C(O)C(O)C1O (stereo not drawn) | ELISA, item: IL-1β | Balb/c mouse, serum | oral, 5 mg/kg, added: LPS |  | serum concentration | 90.6 pg/mL |
| CCOC(=O)c1cc2c(N)c(C(=O)OC)sc2nc1C |  | Sprague-Dawley rats | subcutaneous, dose not given | reference: vehicle | urine non-urea solute concentration | no effect |
| COc1c2c(cc3oc(COC4OC(CO)C(O)C(O)C4O)cc(=O)c13)OC(C(C)(C)O)C2 (stereo not drawn) | analgesic effect | Kunming mouse, female | oral, 2 mg/kg, 0 h, 55 °C, before dosing, 30 s cut-off |  | hot plate latency | 8.43 ± 0.62 s |
| CN1CCC[C@]1(C)/C=C/S(=O)(=O)NC(=O)Nc1c2c(cc3c1CCC3)CCC2 | IL-1β release, ex vivo whole blood | human, whole blood | oral, 50 mg single dose, 12 h, added: LPS and ATP |  | inhibition | > 90% |
| CN(C)c1cc2ccccc2c(N)n1 |  | ICR mouse, CCl4 liver fibrosis | intraperitoneal, 1 and 3 mg/kg daily |  | serum ALT | decreased |
| CC(C)CN(CC(C)C)C(=O)/C=C/C=C/c1ccc2c(c1)OCO2 | open field | C57BL/6N mice | ip, 0.3 mg/kg | reference: total distance | centre distance | 10.7 ± 1.1% |
| COc1ccc2c(c1)c(CC(=O)OCOC(C)=O)c(C)n2C(=O)c1ccc(Cl)cc1 | hot plate test | BALB/c mice | 100 mg/kg, 0 min |  | latency of nociceptive response | 9.53 ± 0.38 s |
| O=C(O)C1OC(Oc2cccc(-c3nc(N4CCOCC4)c4oc5ncccc5c4n3)c2)C(O)C(O)C1O (stereo not drawn) | glucuronide formation | dog liver microsomes |  |  | Vmax | 432 ± 15 pmol/min/mg |
| C=C(c1ncc(C(=O)O)cn1)c1cc2c(cc1C)C(C)(C)CCC2(C)C | RNA sequencing, item: Cav1 mRNA | rat, brain | dose not given, 24 h, single dose | reference: vehicle | log2 fold change | 0.75 |
| CCCCCCCCCC(=O)N[C@@H](Cc1c[nH]c2ccccc12)C(=O)N[C@H](CC(N)=O)C(=O)N[C@@H](CC(=O)O)C(=O)N[C@@H]1C(=O)NCC(=O)N[C@@H](CCCN)C(=O)N[C@@H](CC(=O)O)C(=O)N[C@H](C)C(=O)N[C@@H](CC(=O)O)C(=O)NCC(=O)N[C@H](CO)C(=O)N[C@@H]([C@H](C)CC(=O)O)C(=O)N[C@@H](CC(=O)c2ccccc2N)C(=O)O[C@@H]1C | membrane leakage | bacterial mimic liposomes | 50 µg/mL, 100 min |  | calcein release | 44% |
| COc1ccc(-c2nnc(COc3cc(-c4nc5ccccc5s4)ccc3OC)o2)cc1OC | seizure protection | albino mouse, scPTZ-induced seizure | ip, 4.0 h |  | minimal effective dose | 30 mg/kg |
